{"data": "Results collected from several papers", "organism": "Salmonella typhimurium", "note": "± gives the spread as reported."}
{"SMILES": "CC(=O)N1CCC(C(=O)N2CCN3C(=O)c4cc(-c5ccccc5)ccc4NC(=O)C3C2)CC1 (stereo not drawn)", "system": "TA98", "setting": "15.8 µg/plate, added: rat liver S9", "quantity": "revertants per plate", "value": 40}
{"SMILES": "O=[N+]([O-])c1ccc(N2CCC(NCCC(O)c3ccc(F)c4ccccc34)CC2)c(C(F)(F)F)c1 (stereo not drawn)", "assay": "SOS/umu test", "system": "TA1535/pSK1002, TGA medium", "setting": "0.000488 mg/mL, 4 h, added: 10% rat liver S9", "quantity": "survival", "value": "70%"}
{"SMILES": "Nc1ccc2cc3ccccc3cc2c1", "assay": "Ames test, confirmatory", "system": "TA1537", "setting": "2.0 µg/plate, added: rat liver S9", "scale": "relative to: solvent control", "quantity": "revertant ratio", "value": 4.1}
{"SMILES": "CNC(=O)c1c(N(C)N=O)ncn1C", "assay": "plate incorporation", "system": "TA1535, water", "setting": "150 µg/plate, without S9", "quantity": "revertant colonies per plate", "value": "32 ± 3"}
{"SMILES": "O=[N+]([O-])c1ccc(NC2CCNCC2)c(C(F)(F)F)c1", "assay": "genotoxicity, SOS/umu test", "system": "TA1535/pSK1002", "setting": "0.002 mg/mL, 4 h, with S9, full range", "quantity": "induction factor", "value": 0.6}
{"SMILES": "N#C[C@@]1(n2ccc(N)nc2=O)O[C@H](CO)[C@@H](O)[C@H]1O", "system": "TA100", "setting": "10 µM, without S9, unit not given", "scale": "relative to: control", "quantity": "viability", "value": 99.1}
{"SMILES": "Cc1cc(C(=O)NC(C)(C)COc2cccc3c2C(N)=NS(=O)(=O)N3)cc(C)n1", "assay": "Ames test, initial", "system": "TA98", "setting": "50.0 µg/plate", "scale": "relative to: solvent control", "quantity": "revertant ratio", "value": 1.1}
{"SMILES": "OC(CCN1CC=C(c2ccc(F)cc2)CC1)c1ccc(F)c2ccccc12 (stereo not drawn)", "assay": "genotoxicity, SOS/umu test", "system": "TA1535/pSK1002", "setting": "0.063 mg/mL, 4 h, with S9, lower range", "quantity": "induction factor", "value": 0.9}
{"SMILES": "COc1cccc(-c2n[nH]c(SCc3ccccn3)n2)c1OC", "assay": "Ames test, preincubation", "system": "TA1535", "setting": "0.50 mg/plate, without S9", "quantity": "revertant colonies per plate", "value": 16}
